Published values of several laboratories.
Compare with care: the assays were run in different laboratories. ± gives the spread as reported.

SMILES	assay	system	setting	how to read	endpoint	value
CC1(C)OC[C@H](C2CCCCC2)N[C@@H]1c1ccc(-c2ccccc2)cc1	shake-flask, LC-HRMS	aqueous buffer	16 h, pH 6.8		solubility	< 4 µM
N#Cc1ccc2c(c1)[C@H]1CCCN(C(=O)c3ccc4[nH]cnc4c3)[C@H]1C2		human males	360 mg, day 15		SHBG level	36 nmol/L
CN(CCCN1CCN(C(=O)CN2CCN(CC(=O)[O-])CCN(CC(=O)[O-])CCN(CC(=O)[O-])CC2)CC1)c1ccc2nccc(C(=O)NCC(=O)N3CC(F)(F)C[C@H]3C#N)c2c1.[68Ga+3]		mice, HT-1080.hFAP and HT-1080 wild-type xenografts, liver	iv, 500 pmol, 4 h post injection		uptake	0.3 %IA/g
Cc1cc(-c2cn[nH]c2-c2cccc(OCc3cccc(C#N)c3)c2)cc(C)n1		C57BL/6 mouse	intraperitoneal, 200 mg/kg daily for 5 days		tolerability	not toxic
CCN1CCN(Cc2ccc(NC(=O)c3ccc(C)c(NC(=O)c4cncc(-c5cccs5)c4)c3)cc2C(F)(F)F)CC1	LC-MS/MS	C57BL/6 mouse, plasma	intraperitoneal, 20 mg/kg single dose, 2 h		mean plasma concentration	310 ng/mL
CC(C)c1nc(N(C)S(C)(=O)=O)nc(-c2ccc(F)cc2)c1/C=C/[C@@H](O)C[C@@H](O)CC(=O)O	refers to: nausea	healthy men	oral, dose not given, 8 days, treatment-emergent, crossover trial		subjects with adverse event	0%
CCCCOC(=O)N1CCN(C(=O)[C@H](CP(=O)(O)O)NC(=O)c2cc(N3CC[C@H](OC)C3)nc(-c3ccccc3)n2)CC1	refers to: aspartate aminotransferase	human, serum	8 mg, 24 h post-dose		change from baseline	-1.3 ± 3.9 U/L
COc1ccc2c(c1)CN(C(=O)CCN1CCC(Cc3ccccc3)CC1)CC[S@@+]2[O-]	telemetry	conscious dog	intravenous, 4 mg/kg, 0.5 h		heart rate	105 ± 18 beats/min
O=c1cc(-c2ccc(OS(=O)(=O)[O-])cc2)oc2cc(OS(=O)(=O)[O-])cc(OCc3cccc(COc4cc(OS(=O)(=O)[O-])cc5oc(-c6ccc(OS(=O)(=O)[O-])cc6)cc(=O)c45)n3)c12.[Na+].[Na+].[Na+].[Na+]		pooled human plasma			concentration doubling APTT	> 855000 nM
CNC(=O)c1ccc(-c2cnc3ncc(Cc4ccc5ncccc5c4)n3n2)cc1F	CTCAE v4.0, any causality	human cancer patients	oral, dose not given, dose escalation		decreased appetite incidence (all grades)	42%
CC(C)(C(=O)N1CCOc2c(C#N)cncc2C1)C(F)F		healthy humans, both sexes, plasma	oral, 30 mg single dose, 3-fold dose increase	relative to: 30 mg over 10 mg	Cmax dose proportionality ratio	3.6
O=c1[nH]c(=O)n([C@@H]2O[C@H](CO)[C@@H](O)[C@@H]2F)cc1CCCC[18F]		nude mice, RG2 tumour, brain	intravenous, dose not given, 2 h		biodistribution	0.04 ± 0.01 %ID/g
Cc1ccc(Sc2ccccc2N2CCNCC2)c(C)c1		healthy adult men	oral, 10 mg single, 10 day		increased blood creatine phosphokinase	0%
CCN1/C(=C/C(C)=O)Sc2ccc(F)cc21		cynomolgus monkey	oral, 30 mg/kg, 2 h post-dose		systolic blood pressure	110 ± 6 mmHg
CCO[C@H]1CCN(Cc2c(OC)cc(C)c3[nH]ccc23)[C@H](c2ccc(C(=O)O)cc2)C1		healthy human controls, plasma	oral, 200 mg single dose, hepatic impairment phase I study		unbound Cmax (median)	692 ng/mL
CN(C)C(=N)N=C(N)N		healthy human subjects	oral, dose not given		vascular disorder adverse events	0%
Cc1c(C(=O)O)ccc2c3n(nc12)[C@@H]1[C@H](C3)N(CC2CC2)[C@@]2(C(=O)Nc3cc(Cl)ccc32)[C@H]1c1cccc(Cl)c1F	phase Ia trial, refers to: Headache	cancer patients	oral, dose not given, all patients grade ≥3		adverse event incidence	0%
CCOC(=O)N1C[C@@H](c2ccccc2O)N[C@@H](c2ccc(-c3ccccc3)cc2)C1	shake-flask, LC-HRMS	aqueous buffer	16 h, pH 6.8		solubility	< 4 µM
O=C1NCCc2nc(OCc3cccc(F)c3)ccc21	refers to: Writhing	Sprague-Dawley rat male	oral, 100 mg/kg, 0 min	relative to: baseline, direction not given	Irwin test score	0

SMILES	assay	system	setting	how to read	endpoint	value
Cc1cc([C@H]2C[C@H]3[C@@H](CF)SC(N)=N[C@@]3(c3ccc(F)cc3F)CO2)on1		129/SVE wild-type mouse, male	subcutaneous, 30 mg/kg, 1 h		CSF concentration	467 nM
N[C@@H](C[18F])C(=O)O	PET imaging	female athymic nude mice, U-87 MG xenograft, muscle	intravenous, 15 min		tracer uptake	1.23 ± 0.13 %ID/cc
COc1cc2nccc(Oc3ccc(NC(=O)c4cc5c(n(-c6ccccc6)c4=O)CCCC5=O)nc3)c2cc1OC		relapsed or refractory AML	oral, 10 mg once daily		grade ≥3 Hyperglycaemia patients	14.3%
CCOc1c([C@H](C)n2nc(C)c3c(N)ncnc32)cc(Cl)c(F)c1[C@@H]1CNC(=O)C1		human patients, plasma	oral, 45 mg once daily, cycle 1 day 15, monotherapy, geometric mean		Cmin	706 nM
Cn1cc(Nc2nc(N)nc(-c3cccc(-n4ccc5cc(C6CC6)cc(F)c5c4=O)c3CO)n2)cn1		healthy subjects	oral, 300 mg tablet, fasted		drug-related nausea subjects	0%
CC(C)=CCC/C(C)=C/C(=O)O.Cc1cc(/C=C/C#N)cc(C)c1Nc1ccnc(Nc2ccc(C#N)cc2)n1		aqueous buffer	pH 1.2		equilibrium solubility	8.22 ± 0.09 µg/mL
CC1(C)OC[C@@H](c2ccc3ccccc3c2)N[C@@H]1c1cccc(F)c1	shake-flask, LC-HRMS	aqueous buffer	16 h, pH 6.8		solubility	< 4 µM
CSc1ccccc1C(=O)NCCn1cc(C(=O)NCc2cccc(C)n2)c(=O)c2cc3c(cc21)OC(F)(F)O3		Sprague-Dawley rat, male, plasma	intravenous, 5 mg/kg of parent compound		MRT(0-inf)	0.44 ± 0.02 h
C[C@H](CCC(=O)NCCS(=O)(=O)O)[C@H]1CC[C@H]2[C@@H]3CC[C@@H]4C[C@H](OS(=O)(=O)O)CC[C@]4(C)[C@H]3CC[C@]12C		human, plasma	control		Cmin	56.1 ± 9.4 nM
OC[C@H]1O[C@@H](c2ccc(F)c(Cc3cc4ccccc4s3)c2)[C@H](O)[C@@H](O)[C@@H]1O		Japanese patients, type 1 diabetes	oral, 100 mg/day, onset day 8	relative to: patients	hypoglycaemia-related adverse event	3%
O=C(O)CCC(=O)O.[2H]C([2H])([2H])Oc1cc(C)c2[nH]ccc2c1CN1CC[C@@H](C2CC2)C[C@H]1c1ccc(C(=O)O)cc1	multiple ascending dose	healthy Chinese subjects	100 mg twice daily		subjects with TEAE Constipation	12.5%
Cn1ncnc1[C@H]1c2n[nH]c(=O)c3cc(F)cc(c23)N[C@@H]1c1ccc(F)cc1		human patients, plasma	oral, 600 µg/m2 twice daily day 1, day 5, dose level DL3, median, together with: temozolomide 20 mg/m2 daily days 2-6		AUCτ	132 ng·h/mL
NC1(C(=O)N[C@@H](CCO)c2ccc(Cl)cc2)CCN(c2nc[nH]c3nccc2-3)CC1		metastatic CRPC patients	dose not given, any grade, treatment-related, all doses, together with: enzalutamide 160 mg daily		incidence of Vomiting	26.7%
C=CC(=O)Nc1cc(Nc2nccc(-c3cn(C)c4ccccc34)n2)c(OC)cc1N(C)CCN(C)C	storage stability	human plasma	30 d, -80 °C, MQC level		recovery	99.8%
O=c1[nH]c(=O)n([C@H]2C[C@H](O)[C@@H](CO)O2)cc1CCC[18F]		male CD-1 nu/nu mice, RG2 tumour, heart	intravenous, dose not given, 2 h		biodistribution	0.28 ± 0.09 %ID/g
CCOC(=O)N1C[C@@H](C2CCOCC2)N[C@@H](C2CC2)C1	shake-flask, LC-HRMS	aqueous buffer	16 h, pH 6.8		solubility	> 750 µM
COc1ccc([C@@H](O)c2cc(-c3ncnc4cc(N5CCOCC5)ccc34)c(F)cc2Cl)nn1		locally advanced rectal cancer	all dose levels overall, together with: capecitabine and radiotherapy		TEAE, rectal tenesmus	37%
CC=CC1CCC(C2CCC(CCC)CC2)CC1 (centres unmarked)		rat, placenta	1000 ng/mL in perfusate, middle dose, mixture of 21 LCMs		placental accumulation	19.2 ± 23.5 ng/g
O=c1[nH]c(=O)n([C@@H]2O[C@H](CO)[C@@H](O)[C@@H]2F)cc1CCC[18F]		nude mice, RG2 tumour, kidney	intravenous, dose not given, 2 h		biodistribution	0.32 ± 0.17 %ID/g

SMILES	assay	system	setting	how to read	endpoint	value
CN1CCC[C@H](CN2c3ccccc3Sc3ccccc32)C1.Cl		ICR mouse female fasted, lung	oral, 16 mg/kg		AUC(0-t)	51900 ng·h/mL
CCC(=O)N(CCC(c1ccc2c(c1)OCO2)c1ccccc1OC)Cc1ccccc1 (centres unmarked)		female athymic nude mouse, blood	i.p., 60 mg/kg twice daily, 14 days, group mean		MONO	1.85%
COC(=O)c1ccc2c(c1)NC(=O)/C2=C(\Nc1ccc(N(C)C(=O)CN2CCN(C)CC2)cc1)c1ccccc1		healthy human	oral, 150 mg single, alone		AUC(0-t), LS geometric mean	137 ng·h/mL
O=C(Nc1nc2cccc(-c3ccc(CN4CCS(=O)(=O)CC4)cc3)n2n1)C1CC1	refers to: vertigo	rheumatoid arthritis patients	oral, 300 mg once daily, 4 weeks, any relatedness		treatment-emergent adverse events	0%
CCc1cc(C(=O)NC)c2nccc(N3CCc4c(cc(Cn5ccnc5)cc4-c4cn(C)nc4C(F)(F)F)C3=O)c2c1		Sprague Dawley rats	oral, 50 mg/kg once daily, 7 days		red cell distribution width	13.2 ± 0.92%
C[C@H]1CN(C(=O)CC#N)[C@]12CCN(c1ncnc3[nH]ccc13)C2		healthy adults, plasma	oral, 3 mg single dose		Tmax, mean	1 h
CC(=O)N(C)[C@H]1CCN(C(=O)c2cnc3c(c2)C[C@](C)(c2ccc(F)cc2)N3)C1		healthy male subjects, multiple rising dose	oral, 15 mg once daily		drug-related adverse events	12.5%
CNCCOC12CC3(C)CC(C)(CC(Cn4ncc(-c5ccc(N6CCc7cccc(C(=O)Nc8nc9ccccc9s8)c7C6)nc5C(=O)O)c4C)(C3)C1)C2		beagle dog, male, anaesthetised	intravenous bolus, 0.03 mg/kg, 10 min	relative to: baseline	QRS duration change	1 ms
C=C(C)[C@@H]1CC[C@]2(NCCN3CCS(=O)(=O)CC3)CC[C@]3(C)[C@H](CC[C@@H]4[C@@]5(C)CC=C(C6=CC[C@@](CF)(C(=O)O)CC6)C(C)(C)[C@@H]5CC[C@]43C)[C@@H]12		healthy human volunteers	oral, 500 mg, 7 days		subjects with somnolence	0%
Cc1ccc([C@@H]2O[C@H](CO)[C@@H](O)[C@H](O)[C@H]2O)cc1Cc1ccc(-c2ccc(F)cc2)s1	refers to: inorganic phosphorus	Japanese type 2 diabetes patients	25 mg, day 6, 24 h urine collection	relative to: baseline	urinary phosphate excretion change	13.9 mg
CC[C@H]1CC[C@H](c2ccc(-c3ccc(F)c(F)c3)cc2)CC1		rat, placenta	5000 ng/mL in perfusate, high dose, mixture of 21 LCMs		placental accumulation	231 ± 356 ng/g
C[C@@H]1CCO[C@H]2Cn3cc(C(=O)NCc4ccc(F)cc4F)c(=O)c(O)c3C(=O)N12		human paediatric patients, weight sample E to under sample F kg, plasma	oral, 35 mg film-coated tablet, 24 h, steady state, geometric mean, population PK post-hoc, N 8		trough concentration (C24)	608 ng/mL
Cc1ccc(C(=O)Nc2ccnc(S(N)(=O)=O)c2)c(N2CCCC(F)(F)CC2)n1		rhesus macaque, plasma	oral, 3 mg/kg, noxious stimulus test		total plasma concentration	1.46 to 3.56 µM
CO[C@H]1/C=C/O[C@@]2(C)Oc3c(C)c(O)c4c(O)c(c(/C=N/N5CCN(C)CC5)c(O)c4c3C2=O)NC(=O)/C(C)=C\C=C\[C@H](C)[C@H](O)[C@@H](C)[C@@H](O)[C@@H](C)[C@H](OC(C)=O)[C@@H]1C		healthy humans	oral, dose not given		gastrointestinal adverse events	20.8%
O=C(COc1ccc(Cl)cc1)NC12CC(c3nnc([C@H]4C[C@@H](OC(F)(F)F)C4)o3)(C1)C2		humans	concentration not given		subjects with any TEAE	73.7%
C[C@@H](Oc1ccc(S(C)(=O)=O)cc1C(=O)N1C[C@@H]2C[C@]2(c2cc(C(F)(F)F)on2)C1)C(F)(F)F		young humans, plasma	oral, 50 mg once daily, multiple dose, geometric mean		half-life at steady state	41.6 h
Cc1cc(C)c(CNC(=O)c2cc(Cl)c3c(c2C)O[C@@](C)([C@H]2CC[C@H](N(C)C)CC2)O3)c(=O)[nH]1		human male, urine	oral, 200 mg, 0 to 48 h	relative to: dose	excretion as parent	10%
CN1CCN(c2cccc3c2CCN(C(=O)/C=C/c2c(-n4cnnn4)ccc(Cl)c2F)[C@@H]3C(=O)Nc2ccc(C(=O)O)cc2)C(=O)C1		healthy human subjects	intravenous infusion, 10 mg/h, 2 h		discontinuations due to adverse events	0%

Some of these lines once more:
SMILES	assay	system	setting	how to read	endpoint	value
CCCCOC(=O)N1CCN(C(=O)[C@H](CP(=O)(O)O)NC(=O)c2cc(N3CC[C@H](OC)C3)nc(-c3ccccc3)n2)CC1	refers to: aspartate aminotransferase	human, serum	8 mg, 24 h post-dose		change from baseline	-1.3 ± 3.9 U/L
COc1ccc2c(c1)CN(C(=O)CCN1CCC(Cc3ccccc3)CC1)CC[S@@+]2[O-]	telemetry	conscious dog	intravenous, 4 mg/kg, 0.5 h		heart rate	105 ± 18 beats/min
O=c1cc(-c2ccc(OS(=O)(=O)[O-])cc2)oc2cc(OS(=O)(=O)[O-])cc(OCc3cccc(COc4cc(OS(=O)(=O)[O-])cc5oc(-c6ccc(OS(=O)(=O)[O-])cc6)cc(=O)c45)n3)c12.[Na+].[Na+].[Na+].[Na+]		pooled human plasma			concentration doubling APTT	> 855000 nM
CNC(=O)c1ccc(-c2cnc3ncc(Cc4ccc5ncccc5c4)n3n2)cc1F	CTCAE v4.0, any causality	human cancer patients	oral, dose not given, dose escalation		decreased appetite incidence (all grades)	42%
CC(C)(C(=O)N1CCOc2c(C#N)cncc2C1)C(F)F		healthy humans, both sexes, plasma	oral, 30 mg single dose, 3-fold dose increase	relative to: 30 mg over 10 mg	Cmax dose proportionality ratio	3.6
O=c1[nH]c(=O)n([C@@H]2O[C@H](CO)[C@@H](O)[C@@H]2F)cc1CCCC[18F]		nude mice, RG2 tumour, brain	intravenous, dose not given, 2 h		biodistribution	0.04 ± 0.01 %ID/g
Cc1ccc(Sc2ccccc2N2CCNCC2)c(C)c1		healthy adult men	oral, 10 mg single, 10 day		increased blood creatine phosphokinase	0%
CCN1/C(=C/C(C)=O)Sc2ccc(F)cc21		cynomolgus monkey	oral, 30 mg/kg, 2 h post-dose		systolic blood pressure	110 ± 6 mmHg
